Measured values collected from several papers.
Numbered parts are unrelated; each lists some results of a single study. Several values in a cell are separate wells, animals, samples, runs or records.

Set 1
Compound: CNC(=O)Nc1ccc2c(c1)[C@@]1(CC2)OC(=O)N(CC(=O)N(Cc2ccc(F)cc2)[C@@H](C)C(F)(F)F)C1=O
Effect on: cell-free assay
Method: competition with immobilised ligand
Tested at: 1 µM
target	remaining binding
Cyclin-dependent kinase 4, with cyclin D1 (CDK4, Homo sapiens, UniProt P11802)	75%
MAP4K4 (Homo sapiens, UniProt O95819)	100%
TAOK2 (Homo sapiens, UniProt Q9UL54)	95%
FGFR3 (Homo sapiens, UniProt P22607, G697C)	96%
MAP2K3 (Homo sapiens, UniProt P46734)	87%
Ribosomal protein S6 kinase alpha-5, N-terminal kinase domain (RPS6KA5, Homo sapiens, UniProt O75582)	74%
OXSR1 (Homo sapiens, UniProt O95747)	65%
GRK7 (Homo sapiens, UniProt Q8WTQ7)	85%
NUAK2 (Homo sapiens, UniProt Q9H093)	77%
PHKG1 (Homo sapiens, UniProt Q16816)	100%
STK33 (Homo sapiens, UniProt Q9BYT3)	100%
GRK4 (Homo sapiens, UniProt P32298)	100%
CAMKK1 (Homo sapiens, UniProt Q8N5S9)	100%
HUNK (Homo sapiens, UniProt P57058)	100%
STK26 (Homo sapiens, UniProt Q9P289)	100%

Set 2
SMILES: C[C@@H]1CN(c2ccc(-c3cc(C(=O)NCCOCCOCCOCCOCCNC(=O)Cn4cc(-c5[nH]cc(C(=O)N[C@@H](CC(N)=O)c6ccc(F)c(Cl)c6)c5-c5ccc(Cl)cc5F)cn4)ccc3F)cc2NC(=O)c2c[nH]c(=O)cc2C(F)(F)F)C[C@H](C)N1C
Action: degrader
Time: 24 h
WDR5: WD repeat-containing protein 5 (WDR5, Homo sapiens, UniProt P61964)
target	assay	conditions	how to read	remaining protein level
WDR5	Jess capillary immunoassay, measured: WDR5 over vinculin	4.69 nM	relative to: DMSO	91.8% and 109% and 127%
WDR5/DCAF1 (Homo sapiens, UniProt P61964+Q9Y4B6)	HiBiT luminescence	10000 nM	–	74.2% and 88.3% and 76.8%
WDR5	Jess capillary immunoassay, measured: WDR5 over vinculin	141 nM	relative to: DMSO	113% and 101% and 82%

Set 3
Target: Diamine acetyltransferase 1 (Homo sapiens, UniProt P21673)
Action: inhibitor
Tested at: 10 µM
Relative to: control
Construct (P21673 1-171): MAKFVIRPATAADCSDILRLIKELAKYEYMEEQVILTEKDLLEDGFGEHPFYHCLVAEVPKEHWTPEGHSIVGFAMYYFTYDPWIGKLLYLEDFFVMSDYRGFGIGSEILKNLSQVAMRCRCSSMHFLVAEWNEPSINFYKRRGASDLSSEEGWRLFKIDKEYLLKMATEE
SMILES	remaining activity [%]
Cc1occc(=O)c1O	84.6
CC1(C)CC[C@]2(C(=O)O)CC[C@]3(C)C(=CC[C@@H]4[C@@]5(C)CC[C@H](O)C(C)(C)[C@@H]5CC[C@]43C)[C@@H]2C1	94.2
O=C(O)[C@H](O)c1ccccc1	110

Set 4
Target: Calcium/calmodulin-dependent protein kinase type II subunit alpha (CAMK2A, Homo sapiens, UniProt Q9UQM7)
Effect on: enzyme activity
Action: inhibitor
Tested at: 10 µM
SMILES	inhibition [%]
O=c1c(-c2ccc(O)cc2)coc2c([C@@H]3O[C@H](CO[C@@H]4OC[C@@H](O)[C@H](O)[C@H]4O)[C@@H](O)[C@H](O)[C@H]3O)c(O)ccc12	25
COC(=O)C1=CO[C@@H](O[C@@H]2O[C@H](CO)[C@@H](O)[C@H](O)[C@H]2O)[C@@H]2C(CO)=CC[C@H]12	-11
C/C=C/c1ccc(O)c(OC)c1	-18
COc1ccc(-c2coc3cc(O[C@@H]4O[C@H](CO)[C@@H](O)[C@H](O)[C@H]4O)ccc3c2=O)cc1	-4
CC(=O)C1=C(O)C=C2Oc3c(C(C)=O)c(O)c(C)c(O)c3[C@@]2(C)C1=O	-2

Set 5
Method: PRP chromatography estimate
Matrix: 1,9-decadiene/PBS
pH: 7.4
SMILES	logD
CCC[C@H]1NC(=O)CSC[C@@H](C(=O)OCC)N(C)C(=O)[C@H](CC(C)C)NC(=O)[C@H](C)N(C)C(=O)[C@@H](CC(C)C)NC(=O)[C@H](C)N(C)C(=O)[C@@H]2CCCN2C(=O)[C@H](CC(C)C)NC(=O)CN(C)C1=O	-0.0851
CC(C)C[C@@H]1NC(=O)[C@H](Cc2cscn2)NC(=O)[C@H](C)NC(=O)[C@H](CCC(=O)N2CCCC2)NC(=O)[C@@H](CCC(=O)N2CCCC2)NC(=O)[C@H](CC(C)C)NC(=O)[C@@H](CC(C)C)NC1=O	-2.7
CC(C)C[C@@H]1NC(=O)[C@H](Cc2cscn2)NC(=O)[C@H](CCC(=O)N2CCCC2)NC(=O)[C@H](CC(C)C)NC(=O)[C@@H](CCC(=O)N2CCCC2)NC(=O)[C@H](CC(C)C)NC(=O)[C@@H](CC(C)C)NC1=O	-1.29
CC(C)C[C@@H]1NC(=O)[C@H](CC(C)C)NC(=O)[C@@H](CC(C)C)NC(=O)[C@H](C(C)C)NC(=O)[C@@H](Cc2cscn2)NC(=O)[C@H](C)NC(=O)[C@H](CCC(=O)N2CCCC2)NC1=O	-1.93

Other studies, line by line
Target: Calcium/calmodulin-dependent protein kinase type 1G (CAMK1G, Homo sapiens, UniProt Q96NX5)
Effect on: cell-free assay
Tested at: 0.5 µM
SMILES	remaining signal
C#Cc1cccc(Nc2ncnc3cc(OCCOC)c(OCCOC)cc23)c1	111%
CS(=O)(=O)CCNCc1ccc(-c2ccc3ncnc(Nc4ccc(OCc5cccc(F)c5)c(Cl)c4)c3c2)o1	102%

Repeated from above (set 1):
target	remaining binding
FGFR3 (Homo sapiens, UniProt P22607, G697C)	96%
MAP2K3 (Homo sapiens, UniProt P46734)	87%
Ribosomal protein S6 kinase alpha-5, N-terminal kinase domain (RPS6KA5, Homo sapiens, UniProt O75582)	74%
OXSR1 (Homo sapiens, UniProt O95747)	65%
GRK7 (Homo sapiens, UniProt Q8WTQ7)	85%
